# Assay results gathered from unrelated publications.
# Each line is one published result; not all experiments were run side by side. ± gives the spread as reported.
# UniProt Q9UNQ0, sequence (whole entry, looked up): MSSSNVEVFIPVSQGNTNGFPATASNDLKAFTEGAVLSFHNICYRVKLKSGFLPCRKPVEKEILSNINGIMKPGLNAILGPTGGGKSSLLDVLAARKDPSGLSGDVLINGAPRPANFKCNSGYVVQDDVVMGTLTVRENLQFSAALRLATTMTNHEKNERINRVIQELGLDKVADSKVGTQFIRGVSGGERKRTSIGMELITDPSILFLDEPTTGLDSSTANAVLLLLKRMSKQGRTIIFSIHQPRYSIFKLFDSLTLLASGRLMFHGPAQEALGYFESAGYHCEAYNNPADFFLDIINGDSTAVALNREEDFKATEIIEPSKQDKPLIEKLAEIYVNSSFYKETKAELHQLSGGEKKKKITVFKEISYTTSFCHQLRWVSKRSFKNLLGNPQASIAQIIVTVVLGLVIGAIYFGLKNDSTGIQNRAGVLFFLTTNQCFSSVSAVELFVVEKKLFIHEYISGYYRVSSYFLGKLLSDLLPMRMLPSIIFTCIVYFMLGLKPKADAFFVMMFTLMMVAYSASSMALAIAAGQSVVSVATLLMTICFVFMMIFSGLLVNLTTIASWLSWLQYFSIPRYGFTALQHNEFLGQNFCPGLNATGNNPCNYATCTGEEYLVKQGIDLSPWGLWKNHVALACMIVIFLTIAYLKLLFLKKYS
SMILES,target or system,assay,test system,conditions,how to read,endpoint,value
Cn1c(=O)oc2ccc(-c3ccc(CC(C#N)NC(=O)C4CNCCCO4)c(F)c3)cc21 (centres unmarked),,measured: lymphadenopathy,human volunteers,oral,,treatment-emergent adverse event incidence,7.4%
Fc1ccc2c(c1)c1nc3ccc(Br)cc3c-1cn2Cc1cn(CCCc2ccccc2)nn1,Giardia duodenalis,,,,reference: Caco-2 CC50 over Giardia IC50,selectivity index,21.6
[64Cu+2].c1ccc(CNCc2ccc(CN3CCCN4CCNCCCN(CC4)CC3)cc2)nc1,CXCR4,,"NOD/SCID mouse, U87 and U87-stb-CXCR4 xenografts, muscle","iv, 120 min, ex vivo",,tissue uptake,0.36 ± 0.07 %ID/g
CC(=O)N[C@H](C(=O)N[C@H](C(=O)N[C@@H](CCCNC(=N)N)C(=O)N1Cc2ccccc2C[C@H]1C(=O)N[C@@H](Cc1ccccc1)C(N)=O)C1CCCCC1)C(C)C,human PBMC,"Bio-Plex multiplex, measured: IL-17",,"250 µg/mL, 24 h",,cytokine level,5.5 ± 4.7 pg/mL
[11CH3]c1ccc2nc(C3CCC3)n(-c3ccc4[nH]ncc4c3)c2n1,,extrapolated from mouse biodistribution,standard human,,,effective dose,4.4 µSv/MBq
Fc1ccc2c(c1)c1nc3ccc(Br)cc3c-1cn2Cc1cn(Cc2ccc(C(F)(F)F)cc2)nn1,Giardia duodenalis,,,,reference: Caco-2 CC50 over Giardia IC50,selectivity index,6.7
NS(=O)(=O)c1ccc(NC(=O)NN[C@@H]2O[C@H](CO)[C@@H](O)[C@H](O)[C@@H]2O)cc1,rabbit erythrocytes,,,"4 µg/mL, 3 h",reference: complete lysis,hemolysis,0%
[64Cu+2].c1cnc(CNCc2ccc(CN3CCCN4CCNCCCN(CC4)CC3)cc2)nc1,CXCR4,,"NOD/SCID mouse, U87 and U87-stb-CXCR4 xenografts, blood","iv, 30 min, ex vivo",,tissue uptake,3.08 ± 0.47 %ID/g
O=C(O)CCC(NP(=O)(O)OCCC[C@@H](NC(=O)CC[C@H](NC(=O)CCCCCNC(=O)c1ccc([18F])cc1)C(=O)O)C(=O)O)C(=O)O (some centres unmarked),CWR22Rv1 tumour model,,"host not given, spleen","4 h, tumour-bearing",,tracer uptake,0.401 %ID/g
COC(=O)COc1ccc(NC(=O)C2(c3ccc(Cl)c(Cl)c3)CC2)c(C)c1,U-937,LDH release,,"50 µM, 4 h",reference: Triton X-100,cytotoxicity,2%
Fc1ccc2c(c1)c1nc3ccc(Br)cc3c-1cn2Cc1cn(Cc2ccc(Br)cc2)nn1,Giardia duodenalis,,,,reference: Caco-2 CC50 over Giardia IC50,selectivity index,5.3
N=C(N)NCCC[C@@H]1NC(=O)[C@H](Cc2c[nH]c3ccccc23)NC(=O)[C@@H](CC2CCCCC2)NC(=O)[C@@H]2CCCN2C(=O)[C@@H](NC(=O)CCc2ccccc2)CCCNC1=O,,,"C57BL/6J mice, plasma","subcutaneous, 1 mg/kg, two-compartment model",,distribution rate constant k12,< 0.001 h⁻¹
Fc1ccc(Cn2cc(Cn3cc4c5cc(Br)ccc5nc-4c4cc(F)ccc43)nn2)cc1,Giardia duodenalis,,,,reference: Caco-2 CC50 over Giardia IC50,selectivity index,6
"CC1(C)C2CC[C@]3(C)C(C(=O)C=C4[C@H]5C[C@@](C)(C(=O)O)CC[C@]5(C)CC[C@]43C)[C@@]2(C)CC[C@@H]1O[C@@H]1O[C@H](C(=O)O)[C@@H](O)[C@H](O)[C@H]1O[C@@H]1O[C@H](C(=O)O)[C@@H](O)[C@H](O)[C@H]1O (single isomer, unassigned)",Epstein-Barr virus,,superinfected Raji cells,,reference: CC50 over EC50,therapeutic index,160
[11CH3]Oc1ccc(C(=O)Nc2c(-c3cccs3)nc3ccccn23)cc1,δ-containing GABAA receptor,,"pig (female Landrace × Yorkshire × Duroc), cortex","intravenous bolus, dose not given",reference: baseline,total distribution volume,5.6 mL/cm³
Fc1cccc(Cn2cc(Cn3cc4c5cc(Br)ccc5nc-4c4cc(F)ccc43)nn2)c1,Giardia duodenalis,,,,reference: Caco-2 CC50 over Giardia IC50,selectivity index,8
O=C(O)C1OC(Oc2ccc3c(=O)cc(-c4ccccc4)oc3c2)C(O)C(O)C1O (centres unmarked),"Broad substrate specificity ATP-binding cassette transporter ABCG2 (ABCG2, Homo sapiens, UniProt Q9UNQ0)","efflux of glucuronide, substrate",HeLa-UGT1A9,,,Km,9 µM

# For quick reference, copied from above:
SMILES,target or system,assay,test system,conditions,how to read,endpoint,value
[64Cu+2].c1cnc(CNCc2ccc(CN3CCCN4CCNCCCN(CC4)CC3)cc2)nc1,CXCR4,,"NOD/SCID mouse, U87 and U87-stb-CXCR4 xenografts, blood","iv, 30 min, ex vivo",,tissue uptake,3.08 ± 0.47 %ID/g
"CC1(C)C2CC[C@]3(C)C(C(=O)C=C4[C@H]5C[C@@](C)(C(=O)O)CC[C@]5(C)CC[C@]43C)[C@@]2(C)CC[C@@H]1O[C@@H]1O[C@H](C(=O)O)[C@@H](O)[C@H](O)[C@H]1O[C@@H]1O[C@H](C(=O)O)[C@@H](O)[C@H](O)[C@H]1O (single isomer, unassigned)",Epstein-Barr virus,,superinfected Raji cells,,reference: CC50 over EC50,therapeutic index,160
